Assay results of several laboratories.
Compare with care: the assays were run in different laboratories.
BRAF: Serine/threonine-protein kinase B-raf (BRAF, Homo sapiens, UniProt P15056)
BRAF V600E: Serine/threonine-protein kinase B-raf (BRAF, Homo sapiens, UniProt P15056, V600E)

Compound	target	assay	conditions	scale	remaining binding [%]
C=CC(=O)N1CCCC(n2c(=O)c3ncccc3n(Cc3ccc(Oc4ccccc4)cc3)c2=O)C1 (stereo not shown)	BRAF	cell-free assay, competition with immobilised ligand	1 µM	–	88
COc1cc(Nc2nccc(-c3cnn4nc(OC)ccc34)n2)cc(C(F)(F)F)c1	BRAF	binding, competition with immobilised ligand	1 µM	–	87
CCN1CCN(Cc2ccc(C(=O)Nc3ccc(C)c(NCc4cnc5[nH]ccc5c4OC)c3)cc2C(F)(F)F)CC1	BRAF V600E	binding, competition with immobilised ligand	1 µM	–	4
CNC1C[S+]2CC[S+]3CC[S+](C1)[Ru-4]321([N]=C=S)[n]2c3ccc(OC)cc3c3c4c(c5cc(F)c[n+]1c5c32)C(=O)NC4=O (stereo not shown)	BRAF V600E	KinomeScan	0.1 µM	baseline: untreated	95
CCN1CCN(Cc2ccc(NC(=O)c3ccc(C)c(NC(=O)c4cncc(-c5cccs5)c4)c3)cc2C(F)(F)F)CC1	BRAF V600E	binding, competition with immobilised ligand	1 µM	–	15
CNC(=O)C1CCN(c2cc(C)c(F)cc2NC(=O)c2ccc(-c3cc(O)ccc3C)c(C)c2)CC1	BRAF	binding, competition with immobilised ligand	1 µM	–	91
Cc1ccc(-c2c(/C=C(\C#N)C(=O)NC(C)C)n(CCCO)c3ncnc(N)c23)cc1	BRAF V600E	cell-free assay, competition with immobilised ligand	1 µM	–	62
COc1ccc(NC(=O)Nc2ccc3c(c2)C(=O)N(C(C)CO)CC(C)C(CN(C)Cc2ccc4c(c2)OCO4)O3)cc1 (stereo not shown)	BRAF	binding, competition with immobilised ligand	10 µM	–	70
COc1c(Cl)cccc1Nc1c(-c2ccncc2C#C[C@@]2(C)CCCN2C(=O)/C=C/CN(C)C)[nH]c2c1C(=O)NCC2	BRAF	cell-free assay, competition with immobilised ligand	3 µM	–	14
Cc1cnc2nc1Nc1cccc(c1)COC/C=C/COCc1cc(ccc1OCCN1CCOCC1)N2	BRAF V600E	binding	0.1 µM	–	100
CC(=O)N1c2ccc(-c3ccc(CNC(=O)c4cn5cc(-c6cnc(N)nc6)nc(N6CCOCC6)c5n4)cc3)cc2CC[C@@H]1C	BRAF V600E	KINOMEscan	10 µM	–	61
Nc1ncc2c(n1)-c1c([nH]c3ccc(C4=CCOCC4)cc13)CCC2	BRAF V600E	binding, competition with immobilised ligand	1 µM	–	100
CNS(=O)(=O)Nc1nccc(Cc2c(C)c3ccc(Oc4ncccc4F)cc3oc2=O)c1F	BRAF	cell-free assay, competition with immobilised ligand	10 µM	–	77
CN1CCN(Cc2ccc(NC(=O)c3cccc(C#Cc4cnc(N)c5ncccc45)c3)cc2C(F)(F)F)CC1	BRAF	cell-free assay, competition with immobilised ligand	50 nM	–	3.9
CC(C)=CC1OC(C)(C)C2C=C3C(=O)C(Cl)=CC(O)C3C3C(O)C4OC4C(=O)C132 (stereo not shown)	BRAF V600E	cell-free assay, competition with immobilised ligand	10 µM	–	72
C=CC(=O)N1CCc2ccc(-n3c(=O)ccc4cnc5ccc(-c6cnn(C)c6)cc5c43)cc21	BRAF	KINOMEscan	1 µM	baseline: DMSO control	100

For quick reference, copied from above:
Compound	target	assay	conditions	scale	remaining binding [%]
CNC(=O)C1CCN(c2cc(C)c(F)cc2NC(=O)c2ccc(-c3cc(O)ccc3C)c(C)c2)CC1	BRAF	binding, competition with immobilised ligand	1 µM	–	91
Cc1ccc(-c2c(/C=C(\C#N)C(=O)NC(C)C)n(CCCO)c3ncnc(N)c23)cc1	BRAF V600E	cell-free assay, competition with immobilised ligand	1 µM	–	62
